Measured values from different studies.
Protocols differ between the studies behind these lines.

For `C[Se]C[C@H](N)C(=O)O`, the inhibition was 0.87% (Replicase polyprotein 1ab, main protease (rep, Severe acute respiratory syndrome coronavirus 2, UniProt P0DTD1); reporter gene (Gaussia luciferase), inhibitor; 20 µM).
`KPRQKRTAT`: “frequency of responding donors” 33 (AIM; peptide, CD8+ T cells from PBMC, human donors; HLA-B*07:02 restricted, unit not given; reference: positive over tested donors).
`CC[C@H](C)[C@H](NC(=O)[C@H](CC(C)C)NC(=O)[C@H](Cc1c[nH]c2ccccc12)NC(=O)[C@H](CCC(N)=O)NC(=O)[C@@H](NC(=O)[C@H](Cc1ccccc1)NC(=O)[C@H](C)NC(=O)[C@H](CCCCNC(=O)COCCOCCNC(=O)COCCOCCNC(=O)CC[C@H](NC(=O)CCCCCCCCCCCCCCCCCCC(=O)O)C(=O)O)NC(=O)[C@H](CCC(N)=O)NC(=O)[C@H](C)NC(=O)[C@@H](NC(=O)[C@H](CCCCN)NC(=O)[C@H](CC(=O)O)NC(=O)[C@H](CC(C)C)NC(=O)C(C)(C)NC(=O)[C@@H](NC(=O)[C@H](CO)NC(=O)[C@H](Cc1ccc(O)cc1)NC(=O)[C@H](CC(=O)O)NC(=O)[C@H](CO)NC(=O)[C@@H](NC(=O)[C@H](Cc1ccccc1)NC(=O)[C@@H](NC(=O)CNC(=O)[C@H](CCC(=O)O)NC(=O)C(C)(C)NC(=O)[C@@H](N)Cc1ccc(O)cc1)[C@@H](C)O)[C@@H](C)O)[C@@H](C)CC)[C@@H](C)CC)C(C)C)C(=O)N[C@@H](C)C(=O)NCC(=O)NCC(=O)N1CCC[C@H]1C(=O)N[C@@H](CO)C(=O)N[C@@H](CO)C(=O)NCC(=O)N[C@@H](C)C(=O)N1CCC[C@H]1C(=O)N1CCC[C@H]1C(=O)N1CCC[C@H]1C(=O)N[C@@H](CO)C(N)=O`: “adverse events (rhinitis)” 20% (healthy subjects, single ascending dose; 1.0 mg).
`WDLTAFGLVAEWFLA` gave a responding donors of 8% (human CD4 T cells; AIM; peptide).
For `Nc1ncnc2c([C@@H]3N[C@H](CO)[C@@H](O)[C@H]3O)c[nH]c12`, the inhibition was 8% (Junin virus; viral replication; HeLa, Romero; 0.4 µM).
`Cn1cnc(Cn2c(=O)[nH]/c(=N\c3cc4cn(C)nc4cc3Cl)n(Cc3cc(F)c(F)cc3F)c2=O)n1`: “anaemia TEAE, Severe severity” 0% (human, all renal function groups; oral, 375 mg).
